# Results from different studies.
# Method: steady-state kinetics
# B1: ADA (Homo sapiens, UniProt P00813); chain MAQTPAFDKPKVELHVHLDGSIKPETILYYGRRRGIALPANTAEGLLNVIGMDKPLTLPDFLAKFDYYMPAIAGCREAIKRIAYEFVEMKAKEGVVYVEVRYSPHLLANSKVEPIPWNQAEGDLTPDEVVALVGQGLQEGERDFGVKARSILCCMRHQPNWSPKVVELCKKYQQQTVVAIDLAGDETIPGSSLLPGHVQAYQEAVKSGIHRTVHAGEVGSAEVVKEAVDILKTERLGHGYHTLEDQALYNRLRQENMHFEICPWSSYLTGAWKPDTEHAVIRLKNDQANYSLNTDDPLIFKSTLDTDYQMTKRDMGFTEEEFKRLNINAAKSSFLPEDEKRELLDLLYKAYGMPPSASAGQNL
# B2: protein (Adiantum capillus-veneris, UniProt A0A4Y6I289); chain MTDAVENKQVEFGALEVEGIKFAPSVAALGSTKQLVLGGAGFRGLEISGNLVKFTAIGIYVDEAIIPHLSPKLHGKSIEELCNNELLFEEVLAAPFEKLVRVVFLLPLTGPQYSEKVVERMGLLPNPGIKEESTKQFLEIFKPENFPPRTSLICSFTEEALKVAFMKTDDFPEDADAVIEDKWLARAFLASIIGKDGVSPLAKLSFAERMSRCL
# B3: SULT2A1 (Homo sapiens, UniProt Q06520); chain MSDDFLWFEGIAFPTMGFRSETLRKVRDEFVIRDEDVIILTYPKSGTNWLAEILCLMHSKGDAKWIQSVPIWERSPWVESEIGYTALSETESPRLFSSHLPIQLFPKSFFSSKAKVIYLMRNPRDVLVSGYFFWKNMKFIKKPKSWEEYFEWFCQGTVLYGSWFDHIHGWMPMREEKNFLLLSYEELKQDTGRTIEKICQFLGKTLEPEELNLILKNSSFQSMKENKMSNYSLLSVDYVVDKAQLLRKGVSGDWKNHFTVAQAEDFDKLFQEKMADLPRELFPWE
# B4: UGT3A2 A344T (Homo sapiens, UniProt Q3SY77); chain AKILTISTVGGSHYLLMDRVSQILQDHGHNVTMLNHKRGPFMPDFKKEEKSYQVISWLAPEDHQREFKKSFDFFLEETLGGRGKFENLLNVLEYLALQCSHFLNRKDIMDSLKNENFDMVIVETFDYCPFLIAEKLGKPFVAILSTSFGSLEFGLPIPLSYVPVFRSLLTDHMDFWGRVKNFLMFFSFCRRQQHMQSTFDNTIKEHFTEGSRPVLSHLLLKAELWFINSDFAFDFARPLLPNTVYVGGLMEKPIKPVPQDLENFIAKFGDSGFVLVTLGSMVNTCQNPEIFKEMNNAFAHLPQGVIWKCQCSHWPKDVHLATNVKIVDWLPQSDLLAHPSIRLFVTHGGQNSIMEAIQHGVPMVGIPLFGDQPENMVRVEAKKFGVSIQLKKLKAETLALKMKQIMEDKRYKSAAVAASVILRSHPLSPTQRLVGWIDHVLQTGGATHLKPYVFQQPWHEQYLLDVFVFLLGLTLGTLWLCGKLLGMAVWWLRGARKVKET
# B5: UGT1A9 (Homo sapiens, UniProt O60656); chain GKLLVVPMDGSHWFTMRSVVEKLILRGHEVVVVMPEVSWQLGRSLNCTVKTYSTSYTLEDLDREFKAFAHAQWKAQVRSIYSLLMGSYNDIFDLFFSNCRSLFKDKKLVEYLKESSFDAVFLDPFDNCGLIVAKYFSLPSVVFARGILCHYLEEGAQCPAPLSYVPRILLGFSDAMTFKERVRNHIMHLEEHLLCHRFFKNALEIASEILQTPVTEYDLYSHTSIWLLRTDFVLDYPKPVMPNMIFIGGINCHQGKPLPMEFEAYINASGEHGIVVFSLGSMVSEIPEKKAMAIADALGKIPQTVLWRYTGTRPSNLANNTILVKWLPQNDLLGHPMTRAFITHAGSHGVYESICNGVPMVMMPLFGDQMDNAKRMETKGAGVTLNVLEMTSEDLENALKAVINDKSYKENIMRLSSLHKDRPVEPLDLAVFWVEFVMRHKGAPHLRPAAHDLTWYQYHSLDVIGFLLAVVLTVAFITFKCCAYGYRKCLGKKGRVKKAHKSKTH
# B6: enzyme (Candida albicans, UniProt A0A1D8PHX1); chain MISIIQNGISQLSSVSGLDEANLKILICTLLSFPFGIIFKRLPDHDYTLKNIYNVAVSCFYVFGICDLRFGISTLLISATGSYFITRYVRTKSMPWINFLFLMIHMAYSHFHLQFFKEYDPKSIDITGAQMILVMKLSAFGWNIHDGKQPRSTLNDFNKARAITKHPNVLPYIGYVFFYASLLTGPAFDYADYDKFIHGTLFDDVPQDKRPGKNKRRIPRSGVQAFKKFSLGFFWAFLLLQSDKFVTMEYMFSPEFVQYHGLFYRIIYMWILGFTFRLKYYTIWTIAEGACILCGIGYNGVDPETGEFKWNRVQNIDPWSFETGQNVHACLEAWNQNTNIWLKNYVYLRVAKPGKKPGFKSTIFTFTTSAFWHGTRPGYYLTFVVGALMQTVGKYYRRNFRPIFLEADGKTPKPTKIVYDFVCWVNTQLAFGFFVQPFVILGFTKSLECWATVYYWLLWVIAISFFAFSGPFAKSVSKFFKSLQPSYREQQRKSREDKYKLNNEEASIVEQAVGAKLGQDYDIPALGLPPFDVFTDFDQTEVDHDIQHLRKAWTSFRGRRGSITENDFDGLKDAYNNFTNEINDIFNTKKEEFKKEKLNKQN
# B7: enzyme R201K (Arabidopsis thaliana, UniProt O82390); chain MNARALLCSSNIHSLYTSNRPPEKTSSSRSLRNLKPSPKSLRVWIYPRNRSSVFRVLVRSSDKSESSNSYYVEGDKVSGNNDVVSDSPSSIVLPWWEEFPKRWVIVLLCFSAFLLCNMDRVNMSIAILPMSAEYGWNPATVGLIQSSFFWGYLLTQIAGGIWADTVGGKRVLGFGVIWWSIATILTPVAAKLGLPYLLVVKAFMGVGEGVAMPAMNNILSKWVPVQERSRSLALVYSGMYLGSVTGLAFSPFLIHQFGWPSVFYSFGSLGTVWLTLWLTKAESSPLEDPTLLPEERKLIADNCASKEPVKSIPWRLILSKPPVWALISCHFCHNWGTFILLTWMPTYYHQVLKFNLMESGLLSVFPWMTMAISANAGGWIADTLVSRGFSVTNVRKIMQTIGFLGPAFFLTQLKHIDSPTMAVLCMACSQGTDAFSQSGLYSNHQDIAPRYSGVLLGLSNTAGVLAGVLGTAATGHILQHGSWDDVFTISVGLYLVGTVIWNLFSTGEKIID
# B8: bga E532Q (Niallia circulans, UniProt E5RWQ2); chain GNSVSYDGERRVNFNENWRFQRETNGSIAGAQNPGFDDSSWRKLNLPHDWSIELDFNKNSLATHEGGYLDGGIGWYRKTFTIPESMKGKRISLDFDGVYMNSTTYLNGEVLGTYPFGYNAFSYDISDKLYKDGRANVLVVKVNNTQPSSRWYSGSGIYRNVYLTVTDPIHVARYGTFVTTPNLEKSIKEDRADVNIKTKISNDAAEAKQVKIKSTIYDGAGNTVQTVETEEKTAAAGTVTPFEQNTVIKQPKLWSIDKPYRYNLVTEVIVGGQTVDTYETKFGVRYFKFDENEGFSLNGEYMKLHGVSMHHDLGALGAATNARGVERQMQIMKDMGVNAIRVTHNPASPELLEAANKLGLFIIEEAFDSWAQSKKPYDYGRFFNAWAEHDIKEMVDRGKNEPAIIMWSIGNEIYDTTNAAGVETARNLVGWVKEIDTTRPTTIGEDKTRGDKVNVTPINSYIKEIFNIVDVVGLNYSENNYDGYHKQNPSWKLYGSQTSSATRSRGVYTHPYQYNQSTKYADLQQSSYDNDYVGWGRTAEDAWKYDRDLKHIAGQFIWTGFDYIGEPTPYYNSYPAKSSYFGAVDTAGFPKDIFYYYQSQWKKEPMVHLLPHWNWKEGEKVRVLAYTNASKVELVLNGESLGEKNYDNKQTSWGAPYKETKDGKTYLEWAVPFKPGKLEAVAKDENGKVIARDQVVTAGEPASVRLTADRKVVKADGTDLSFITADIVDSKGIVVPDADHLITFNVTGQGELAGVDNGNASSVERYKDNKRKAFSGKALAIVQSSKLSGKITVHASVAGLSSDSTSVFTVTP
# B9: protein (Rheum palmatum, UniProt A0A7L9A2S6); chain MKKTELVFLPAPAPGHLVSTVEFSKRLIARDARLTVTILVISSPFSRGAQTNPSPGIRYVTLPQVDVPQHLMKDSIEHTISVYIASHAPHVRDAVAALQTESTVHVAGLFLDMFCTPMIDVANELGLPSYVFFCSSAGFLGLLLHLPVHSQPRFDETGLDVLIPSFQNPVPTRVLPRFGFNELGYKSFMDHAKRFGETKGIIINTYAELEPYALKSLLDAYDTAPVYAVGPVLDLRSQVHMPCDAAERARIMGWLDKQPDSSVVFLCFGSGGSFSEHQIREISKGLSQSGQRFLWSVRKPPTGGLVKPTEYTETELRSVLGDEFWSLLDEGERGVVCGWAPQVEVLGHKSVGAFVSHCGWNSTLESLWFGKPMVTWPLYAEQQMNAFELVKELGIAVELTLDYRLHSSEVVEAREVERAVRRVMDENNPVRYKVKEMAEVCRATLVEGGSSFVCVDRLISGFLGEIN
# B10: FPPS (Aedes aegypti, UniProt Q17F78); chain MLSTLIRAGSLQTMGRQFARSVETPVQMQHARFISKSSEVNSDYMTMRENQTQKVSRDYNSKLQVRLKKVSRTLSTLNNSIPEAASQTIVTKSDAREFMAVFPDLVRDLTEYCKKYDNTLAPKWFVKALQYNVPQGKKNRGLAAVLAYRMLSKSEDLTPENIRRAHYLGWVIEMFQAVFLICDDAMDGSQTRRGQPCWYKLEDVKLSGINDALMIDAAIFYVLKKQFGDEPYYSKLVETFNEIKFITTIGQSLDLRSARMDVTKYTMDLYKSIVCHKTAYYTFYLPVALAMHMTGFTDPEVFRQTKTILLEIGLFYQTQDDFLDCFGDPAVTGKIGTDIEEGKCTWLSVVAMQRASDEQKELMKQCYGSSDPEKVARVKKLYEELGLPTTYAIYEEESYNMIKTHIQQISRGLPHELFFKIMEKIYRRDC
# B11: COMT (Homo sapiens, UniProt P21964); chain MPEAPPLLLAAVLLGLVLLVVLLLLLRHWGWGLCLIGWNEFILQPIHNLLMGDTKEQRILNHVLQHAEPGNAQSVLEAIDTYCEQKEWAMNVGDKKGKIVDAVIQEHQPSVLLELGAYCGYSAVRMARLLSPGARLITIEINPDCAAITQRMVDFAGVKDKVTLVVGASQDIIPQLKKKYDVDTLDMVFLDHWKDRYLPDTLLLEECGLLRKGTVLLADNVICPGAPDFLAHVRGSSCFECTHYQSFLEYREVVDGLEKAIYKGPGSEAGP
# Chain of UniProt Q9Y6L6 (whole entry, looked up): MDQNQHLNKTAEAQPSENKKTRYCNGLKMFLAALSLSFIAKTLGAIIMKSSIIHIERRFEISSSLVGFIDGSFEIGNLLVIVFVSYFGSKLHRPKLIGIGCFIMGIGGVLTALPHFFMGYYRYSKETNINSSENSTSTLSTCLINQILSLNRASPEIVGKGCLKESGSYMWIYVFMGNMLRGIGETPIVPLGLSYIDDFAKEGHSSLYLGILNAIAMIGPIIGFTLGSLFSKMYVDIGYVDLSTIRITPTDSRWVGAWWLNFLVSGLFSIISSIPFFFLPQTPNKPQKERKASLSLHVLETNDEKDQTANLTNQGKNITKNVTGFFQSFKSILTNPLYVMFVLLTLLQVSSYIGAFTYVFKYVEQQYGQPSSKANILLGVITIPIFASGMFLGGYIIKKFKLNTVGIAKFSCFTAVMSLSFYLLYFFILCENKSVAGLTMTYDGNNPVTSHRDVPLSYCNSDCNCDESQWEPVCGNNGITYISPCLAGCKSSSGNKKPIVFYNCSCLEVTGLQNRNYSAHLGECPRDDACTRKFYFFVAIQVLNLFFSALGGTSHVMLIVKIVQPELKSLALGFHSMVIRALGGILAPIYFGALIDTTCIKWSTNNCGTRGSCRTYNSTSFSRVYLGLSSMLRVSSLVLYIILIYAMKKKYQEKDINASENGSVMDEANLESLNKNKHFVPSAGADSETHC
# Chain of UniProt P31513 (whole entry, looked up): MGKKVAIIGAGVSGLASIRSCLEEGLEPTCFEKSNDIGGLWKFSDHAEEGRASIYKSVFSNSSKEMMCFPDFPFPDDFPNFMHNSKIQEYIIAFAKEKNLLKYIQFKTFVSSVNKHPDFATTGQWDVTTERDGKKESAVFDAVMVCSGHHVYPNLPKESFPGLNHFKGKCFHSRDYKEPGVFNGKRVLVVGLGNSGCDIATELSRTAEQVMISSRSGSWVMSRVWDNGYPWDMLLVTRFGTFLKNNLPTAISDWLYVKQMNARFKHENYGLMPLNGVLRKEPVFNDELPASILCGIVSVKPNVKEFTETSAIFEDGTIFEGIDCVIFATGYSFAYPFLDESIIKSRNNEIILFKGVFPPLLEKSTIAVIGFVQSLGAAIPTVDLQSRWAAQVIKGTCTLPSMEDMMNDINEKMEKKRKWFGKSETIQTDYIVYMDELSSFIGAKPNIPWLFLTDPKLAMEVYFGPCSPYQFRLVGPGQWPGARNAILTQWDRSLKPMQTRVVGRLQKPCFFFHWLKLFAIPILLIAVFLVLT
Molecule,substrate,system,setting,Vmax
B1 (ADA),Nc1ncnc2c1ncn2[C@H]1C[C@H](O)[C@@H](CO)O1,"HEK293, cell homogenate","pH 5.8, 37 °C, not purified",0.468 µmol/min/mg
B2 (protein),O=C(/C=C/c1ccc(O)cc1)c1ccc(O)cc1O,,,0.553 µmol/min/mg
B3 (SULT2A1),C[C@H](CCCC(CO)CO)[C@H]1CC[C@H]2[C@@H]3[C@H](O)C[C@H]4C[C@H](O)CC[C@]4(C)[C@H]3C[C@H](O)[C@]12C,,"pH 7, 37 °C, substrate inhibition, together with: PAPS 14 µM",0.0267 µmol/min/mg
B4 (UGT3A2 A344T),O=c1ccn([C@@H]2O[C@H](CO[P@@](=O)(O)O[P@@](=O)(O)O[C@H]3O[C@H](CO)[C@@H](O)[C@H](O)[C@H]3O)[C@@H](O)[C@H]2O)c(=O)[nH]1,,"pH 7.4, 37 °C, not purified, together with: 1-OH-pyrene 16 µM, MgCl2 10 mM, alamethicin",0.000836 µmol/min/mg
B5 (UGT1A9),O=c1c(O)c(-c2ccc(O)cc2O)oc2cc(O)cc(O)c12,,"pH 7.4, 37 °C",4e-05 µmol/min/mg
"SLCO1B1 (Homo sapiens, UniProt Q9Y6L6)",COc1cc2c(cc1OC)[C@@H]1Cc3ccc(OC)c(OC)c3CN1CC2,,"pH 7.4, 37 °C, not purified",0.000209 µmol/min/mg
B6 (enzyme),CCCCCCCCCCCCCCCCCC(=O)SCCNC(=O)CCNC(=O)[C@H](O)C(C)(C)COP(=O)(O)OP(=O)(O)OC[C@H]1O[C@@H](n2cnc3c(N)ncnc32)[C@H](O)[C@@H]1OP(=O)(O)O,,"pH 7.4, 37 °C, apparent, not purified",0.004 µmol/min/mg
B7 (enzyme R201K),O=P(O)(O)O,,"pH 6.5, 25 °C, apparent, not purified",0.00168 µmol/min/mg
B8 (bga E532Q),O=[N+]([O-])c1ccccc1O[C@@H]1O[C@H](CO)[C@H](O)[C@H](O)[C@H]1O,,"pH 6, 40 °C, low-substrate phase, biphasic",0.2 µmol/min/mg
B9 (protein),O=c1c(O)c(-c2ccc(O)cc2)oc2cc(O)cc(O)c12,,"pH 7.5, 35 °C, apparent, together with: UDP-glucose",6.42e+07 µM/min/mg
"enzyme (Brachypodium distachyon, UniProt I1HY48)",NC(=O)c1ccc[n+]([C@@H]2O[C@H](COP(=O)(O)OP(=O)(O)OC[C@H]3O[C@@H](n4cnc5c(N)ncnc54)[C@H](OP(=O)(O)O)[C@@H]3O)[C@@H](O)[C@H]2O)c1,,"pH 8.8, 23 °C, cofactor varied",7.55 µmol/min/mg
"FMO3 (Homo sapiens, UniProt P31513)",CN1CCC[C@H]1c1cccnc1,HEK293 microsomes,"37 °C, not purified, together with: NADPH regenerating system",1.12e-05 µmol/min/mg
B10 (FPPS),CC(C)=CCC/C(C)=C/COP(=O)(O)OP(=O)(O)O,,"pH 7.5, 37 °C, together with: IPP 100 µM, Mg2+ 5 mM",71.8 µmol/min/mg
B11 (COMT),O=c1oc2c(O)c(O)ccc2cc1-c1nc2ccccc2s1,human liver S9,"pH 7.4, 37 °C",0.00018 µmol/min/mg
